Assay results collected from several papers.
Numbered parts are unrelated; each lists some results of a single study.
Sequence of UniProt Q9H4A3 (whole entry, looked up): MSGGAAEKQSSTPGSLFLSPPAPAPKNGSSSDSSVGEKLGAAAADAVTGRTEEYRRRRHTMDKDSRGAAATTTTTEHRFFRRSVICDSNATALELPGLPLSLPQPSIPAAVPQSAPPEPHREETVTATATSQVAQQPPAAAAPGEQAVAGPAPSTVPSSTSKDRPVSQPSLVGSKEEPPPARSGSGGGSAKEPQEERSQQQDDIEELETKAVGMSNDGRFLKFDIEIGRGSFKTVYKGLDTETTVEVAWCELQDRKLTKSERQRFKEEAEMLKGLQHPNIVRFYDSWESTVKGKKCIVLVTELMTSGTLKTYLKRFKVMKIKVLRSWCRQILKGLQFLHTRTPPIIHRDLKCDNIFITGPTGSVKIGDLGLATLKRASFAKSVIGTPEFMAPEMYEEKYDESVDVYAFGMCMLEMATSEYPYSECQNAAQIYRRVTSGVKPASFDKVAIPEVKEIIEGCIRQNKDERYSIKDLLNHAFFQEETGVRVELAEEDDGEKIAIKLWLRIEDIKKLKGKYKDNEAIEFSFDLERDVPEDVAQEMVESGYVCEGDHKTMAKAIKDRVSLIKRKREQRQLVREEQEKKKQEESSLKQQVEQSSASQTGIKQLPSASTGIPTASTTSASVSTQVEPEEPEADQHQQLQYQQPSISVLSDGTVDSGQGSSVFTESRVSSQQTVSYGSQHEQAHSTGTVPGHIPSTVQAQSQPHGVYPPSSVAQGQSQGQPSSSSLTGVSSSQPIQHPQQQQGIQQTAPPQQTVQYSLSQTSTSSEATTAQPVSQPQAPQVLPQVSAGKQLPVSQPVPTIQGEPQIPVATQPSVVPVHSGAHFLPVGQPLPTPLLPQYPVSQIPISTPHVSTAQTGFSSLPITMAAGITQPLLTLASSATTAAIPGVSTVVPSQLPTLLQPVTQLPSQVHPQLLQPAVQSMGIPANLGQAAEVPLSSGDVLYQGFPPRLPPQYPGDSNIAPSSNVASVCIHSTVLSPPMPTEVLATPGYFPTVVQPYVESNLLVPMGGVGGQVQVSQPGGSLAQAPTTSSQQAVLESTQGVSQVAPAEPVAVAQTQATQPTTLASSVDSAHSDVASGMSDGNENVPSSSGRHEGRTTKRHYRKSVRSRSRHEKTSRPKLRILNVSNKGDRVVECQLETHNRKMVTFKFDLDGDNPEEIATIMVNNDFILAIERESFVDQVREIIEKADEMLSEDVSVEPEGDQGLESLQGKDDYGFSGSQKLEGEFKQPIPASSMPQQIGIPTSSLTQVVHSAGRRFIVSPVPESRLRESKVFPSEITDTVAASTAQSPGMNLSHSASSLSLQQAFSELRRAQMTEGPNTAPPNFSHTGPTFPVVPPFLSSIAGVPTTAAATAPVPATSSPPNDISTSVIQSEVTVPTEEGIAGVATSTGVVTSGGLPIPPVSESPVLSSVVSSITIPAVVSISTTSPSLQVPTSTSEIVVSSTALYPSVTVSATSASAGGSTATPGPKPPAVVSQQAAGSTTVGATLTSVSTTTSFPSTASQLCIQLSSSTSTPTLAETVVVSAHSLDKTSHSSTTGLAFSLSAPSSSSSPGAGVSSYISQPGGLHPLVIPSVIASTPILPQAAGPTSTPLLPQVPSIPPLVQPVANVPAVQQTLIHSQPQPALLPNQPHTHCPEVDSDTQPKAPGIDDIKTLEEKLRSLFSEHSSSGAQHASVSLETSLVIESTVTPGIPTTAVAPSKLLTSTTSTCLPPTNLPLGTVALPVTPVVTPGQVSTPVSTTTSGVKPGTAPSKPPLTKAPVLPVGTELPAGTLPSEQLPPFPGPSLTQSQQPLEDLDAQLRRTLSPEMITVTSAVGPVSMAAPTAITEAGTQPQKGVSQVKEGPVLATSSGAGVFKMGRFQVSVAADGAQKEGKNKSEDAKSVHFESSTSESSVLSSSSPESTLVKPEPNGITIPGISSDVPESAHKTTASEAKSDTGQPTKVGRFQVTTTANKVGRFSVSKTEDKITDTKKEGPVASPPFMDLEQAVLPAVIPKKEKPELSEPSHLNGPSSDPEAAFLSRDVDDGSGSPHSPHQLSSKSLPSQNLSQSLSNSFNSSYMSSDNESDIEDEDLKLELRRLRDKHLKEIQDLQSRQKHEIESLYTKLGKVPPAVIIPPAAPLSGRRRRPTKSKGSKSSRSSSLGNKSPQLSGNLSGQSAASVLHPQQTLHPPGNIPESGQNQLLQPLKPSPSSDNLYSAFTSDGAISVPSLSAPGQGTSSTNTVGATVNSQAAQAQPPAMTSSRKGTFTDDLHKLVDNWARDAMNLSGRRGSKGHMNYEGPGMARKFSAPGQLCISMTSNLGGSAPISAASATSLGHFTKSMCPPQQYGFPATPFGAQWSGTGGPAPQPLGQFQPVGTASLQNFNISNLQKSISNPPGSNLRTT
Sequence of UniProt P43403 (whole entry, looked up): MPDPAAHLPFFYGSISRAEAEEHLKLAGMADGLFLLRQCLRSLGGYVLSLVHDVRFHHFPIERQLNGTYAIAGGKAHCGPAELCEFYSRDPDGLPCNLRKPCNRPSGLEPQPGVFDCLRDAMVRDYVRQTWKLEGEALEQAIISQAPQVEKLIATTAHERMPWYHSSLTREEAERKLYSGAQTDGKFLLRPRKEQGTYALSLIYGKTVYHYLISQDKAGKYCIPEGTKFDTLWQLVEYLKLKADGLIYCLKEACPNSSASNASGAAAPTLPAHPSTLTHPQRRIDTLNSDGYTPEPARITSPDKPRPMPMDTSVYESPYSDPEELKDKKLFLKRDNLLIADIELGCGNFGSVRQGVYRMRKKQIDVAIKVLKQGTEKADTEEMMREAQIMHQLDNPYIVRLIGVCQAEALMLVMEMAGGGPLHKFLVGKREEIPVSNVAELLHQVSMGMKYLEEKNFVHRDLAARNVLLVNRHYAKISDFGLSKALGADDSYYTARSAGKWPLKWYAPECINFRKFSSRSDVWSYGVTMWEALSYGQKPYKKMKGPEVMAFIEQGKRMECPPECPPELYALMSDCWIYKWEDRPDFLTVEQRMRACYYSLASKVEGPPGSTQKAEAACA
Sequence of UniProt O75116 (whole entry, looked up): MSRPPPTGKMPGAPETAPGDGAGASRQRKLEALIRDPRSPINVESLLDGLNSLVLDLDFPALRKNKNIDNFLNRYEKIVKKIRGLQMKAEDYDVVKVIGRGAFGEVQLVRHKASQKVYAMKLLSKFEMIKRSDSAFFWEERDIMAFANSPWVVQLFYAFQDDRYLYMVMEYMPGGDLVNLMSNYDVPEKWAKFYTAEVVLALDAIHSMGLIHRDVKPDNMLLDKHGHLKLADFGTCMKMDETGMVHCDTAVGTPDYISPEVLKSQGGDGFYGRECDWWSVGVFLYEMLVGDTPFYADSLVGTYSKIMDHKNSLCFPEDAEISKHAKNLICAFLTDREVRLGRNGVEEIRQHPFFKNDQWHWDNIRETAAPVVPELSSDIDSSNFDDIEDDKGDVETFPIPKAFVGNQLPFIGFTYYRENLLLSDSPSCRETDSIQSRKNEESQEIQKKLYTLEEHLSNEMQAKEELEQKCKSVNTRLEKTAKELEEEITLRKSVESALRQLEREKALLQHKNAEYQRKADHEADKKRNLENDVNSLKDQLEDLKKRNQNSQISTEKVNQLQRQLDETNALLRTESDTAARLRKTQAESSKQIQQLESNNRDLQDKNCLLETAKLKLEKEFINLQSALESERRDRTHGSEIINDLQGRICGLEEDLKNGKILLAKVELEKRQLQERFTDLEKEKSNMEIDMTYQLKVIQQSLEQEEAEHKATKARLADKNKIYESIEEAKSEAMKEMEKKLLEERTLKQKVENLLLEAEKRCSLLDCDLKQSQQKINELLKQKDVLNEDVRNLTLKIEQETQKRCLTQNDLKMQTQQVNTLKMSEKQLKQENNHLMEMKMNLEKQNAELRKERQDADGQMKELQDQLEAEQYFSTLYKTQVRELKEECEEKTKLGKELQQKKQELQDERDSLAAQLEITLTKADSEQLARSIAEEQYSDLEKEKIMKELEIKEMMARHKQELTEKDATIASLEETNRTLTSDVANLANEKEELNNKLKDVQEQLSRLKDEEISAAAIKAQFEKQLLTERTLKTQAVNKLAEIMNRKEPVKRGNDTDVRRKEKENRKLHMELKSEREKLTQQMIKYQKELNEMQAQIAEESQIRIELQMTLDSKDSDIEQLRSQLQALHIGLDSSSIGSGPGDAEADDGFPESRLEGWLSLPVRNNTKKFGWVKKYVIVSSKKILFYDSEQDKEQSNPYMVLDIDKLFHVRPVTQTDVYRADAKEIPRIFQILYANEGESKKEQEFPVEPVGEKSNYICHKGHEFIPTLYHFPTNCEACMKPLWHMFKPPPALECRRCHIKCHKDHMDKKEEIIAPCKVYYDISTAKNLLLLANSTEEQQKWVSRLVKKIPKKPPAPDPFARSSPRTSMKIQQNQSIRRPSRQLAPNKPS
Sequence of UniProt P19784 (whole entry, looked up): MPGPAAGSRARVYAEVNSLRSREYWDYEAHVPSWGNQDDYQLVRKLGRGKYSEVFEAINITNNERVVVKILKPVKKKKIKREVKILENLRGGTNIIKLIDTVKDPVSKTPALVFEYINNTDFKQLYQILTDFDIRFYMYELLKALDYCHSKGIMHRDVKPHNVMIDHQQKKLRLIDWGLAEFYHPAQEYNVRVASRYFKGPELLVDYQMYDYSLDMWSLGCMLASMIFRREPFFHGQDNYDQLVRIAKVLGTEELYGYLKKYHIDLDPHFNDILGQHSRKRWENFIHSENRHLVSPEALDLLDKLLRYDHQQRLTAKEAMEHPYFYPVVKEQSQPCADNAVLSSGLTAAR
Sequence of UniProt Q8IU85 (whole entry, looked up): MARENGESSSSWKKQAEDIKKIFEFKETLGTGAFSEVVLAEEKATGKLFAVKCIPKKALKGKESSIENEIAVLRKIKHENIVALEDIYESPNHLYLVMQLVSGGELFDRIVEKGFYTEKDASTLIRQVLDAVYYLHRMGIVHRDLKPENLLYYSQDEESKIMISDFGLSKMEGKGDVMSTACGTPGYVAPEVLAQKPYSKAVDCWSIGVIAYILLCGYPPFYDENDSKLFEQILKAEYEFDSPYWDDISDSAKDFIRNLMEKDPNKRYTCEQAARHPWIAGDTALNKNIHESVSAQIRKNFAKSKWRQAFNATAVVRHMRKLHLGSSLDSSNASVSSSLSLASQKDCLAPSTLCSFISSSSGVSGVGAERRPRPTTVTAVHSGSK

Series 1
SMILES: CN(C)C(=O)Cn1cc(-c2nc(C3(c4ccc(-c5cnc(N)nc5)cc4)CC3)no2)cn1
Tested at: 1 µM
| target | test | remaining binding [%] |
| --- | --- | --- |
| TLK2 (Homo sapiens, UniProt Q86UE8) | cell-free assay, competition with immobilised ligand | 100 |
| ZAP70 (Homo sapiens, UniProt P43403) | cell-free assay, competition with immobilised ligand | 94 |
| WNK1 (Homo sapiens, UniProt Q9H4A3) | cell-free assay, competition with immobilised ligand | 97 |
| ACVRL1 (Homo sapiens, UniProt P37023) | binding, competition with immobilised ligand | 86 |
| eIF-2-alpha kinase GCN2, C-terminal kinase domain (EIF2AK4, Homo sapiens, UniProt Q9P2K8, S808G) | cell-free assay, competition with immobilised ligand | 83 |
| CDC42BPG (Homo sapiens, UniProt Q6DT37) | competition binding | 82 |
| GRK1 (Homo sapiens, UniProt Q15835) | cell-free assay, competition with immobilised ligand | 74 |
| FRK (Homo sapiens, UniProt P42685) | cell-free assay, competition with immobilised ligand | 100 |
| MAPK8 (Homo sapiens, UniProt P45983) | cell-free assay, competition with immobilised ligand | 78 |
| HIPK4 (Homo sapiens, UniProt Q8NE63) | cell-free assay, competition with immobilised ligand | 100 |
| Tyrosine-protein kinase ABL1, phosphorylated (ABL1, Homo sapiens, UniProt P00519, H396P) | cell-free assay, competition with immobilised ligand | 100 |
| EIF2AK1 (Homo sapiens, UniProt Q9BQI3) | cell-free assay, competition with immobilised ligand | 88 |
| DYRK2 (Homo sapiens, UniProt Q92630) | cell-free assay, competition with immobilised ligand | 81 |
| MYLK3 (Homo sapiens, UniProt Q32MK0) | cell-free assay, competition with immobilised ligand | 100 |
| MARK1 (Homo sapiens, UniProt Q9P0L2) | cell-free assay, competition with immobilised ligand | 100 |
| PRKCQ (Homo sapiens, UniProt Q04759) | cell-free assay, competition with immobilised ligand | 89 |
| PLK4 (Homo sapiens, UniProt O00444) | cell-free assay, competition with immobilised ligand | 100 |

Series 2
Cell line: HaCaT
Tested at: 100 µM
Time: 60 h
| SMILES | viability [%] |
| --- | --- |
| CCCc1nc2c(C)cc(-c3nc4ccccc4n3C)cc2n1Cc1ccc(-c2ccccc2C(=O)O)cc1 | 67.9 |
| NC(=O)c1ccccc1O | 115 |
| Cc1cccn2c(=O)c(-c3nnn[nH]3)cnc12 | 118 |
| O=C(O)[C@@H](S)[C@@H](S)C(=O)O | 162 |
| O=c1[nH]c(=O)n(C2CCCO2)cc1F (centres unmarked) | 91.1 |
| CC(C(=O)O)c1ccc2c(c1)Cc1cccnc1O2 (centres unmarked) | 57.1 |
| Cc1cnc(C(=O)O)c[n+]1[O-] | 85.2 |
| COc1ccnc(C[S+]([O-])c2nc3ccc(OC(F)F)cc3[nH]2)c1OC (centres unmarked) | 88.3 |
| CC(=O)OCC(=O)[C@@]1(O)CC[C@H]2[C@@H]3CCC4=CC(=O)CC[C@]4(C)[C@H]3[C@@H](O)C[C@@]21C | 127 |
| CN(C)CCOC(=O)COc1ccc(Cl)cc1 | 129 |

Series 3
Structure (SMILES): CC[n+]1c(/C=C/N(C)c2ccccc2)n(-c2ccccc2)c2ccc(-c3nc4ccccc4s3)cc21
Observed: enzyme activity
Action: inhibitor
Tested at: 0.5 µM
Reference: control
| target | remaining activity [%] |
| --- | --- |
| SLK (Homo sapiens, UniProt Q9H2G2) | 101 |
| CAMK1D (Homo sapiens, UniProt Q8IU85) | 99.7 |
| Aurora kinase A (AURKA, Homo sapiens, UniProt O14965) | 88.1 |
| Cyclin-dependent kinase 2, with cyclin A (CDK2, Homo sapiens, UniProt P24941) | 100 |
| NEK9 (Homo sapiens, UniProt Q8TD19) | 108 |
| MAPK10 (Homo sapiens, UniProt P53779) | 92.7 |
| HIPK3 (Homo sapiens, UniProt Q9H422) | 105 |
| MAP3K2 (Homo sapiens, UniProt Q9Y2U5) | 90.3 |
| DMPK (Homo sapiens, UniProt Q09013) | 93.9 |
| ROCK2 (Homo sapiens, UniProt O75116) | 99.1 |
| EGFR (Homo sapiens, UniProt P00533) | 103 |
| CDK7 (Homo sapiens, UniProt P50613) | 97.8 |
| NTRK3 (Homo sapiens, UniProt Q16288) | 100 |
| PKN2 (Homo sapiens, UniProt Q16513) | 79.2 |
| ROS1 (Homo sapiens, UniProt P08922) | 99.1 |
| GRK5 (Homo sapiens, UniProt P34947) | 109 |
| MAP3K8 (Homo sapiens, UniProt P41279) | 92 |
| PRKD1 (Homo sapiens, UniProt Q15139) | 91.9 |
| RET (Homo sapiens, UniProt P07949) | 95.6 |
| BRSK1 (Homo sapiens, UniProt Q8TDC3) | 101 |
| CSNK2A2 (Homo sapiens, UniProt P19784) | 105 |
| DYRK4 (Homo sapiens, UniProt Q9NR20) | 107 |
| PTK2B (Homo sapiens, UniProt Q14289) | 103 |
| CAMK1G (Homo sapiens, UniProt Q96NX5) | 101 |

Series 4
Host: mouse
Sample: microsomes or S9
Tested at: 2 µM
Time: 0.5 h
| SMILES | remaining compound |
| --- | --- |
| CCCNC(=O)Nc1ccccc1S(=O)(=O)NCCC | > 99% |
| COc1ccc(NC(=O)N2Cc3c(sc4c3CCCC4)-n3cccc3C2c2cccs2)c(OC)c1 (centres unmarked) | 7.7% |
| O=C(Nc1ccc2[nH]ncc2c1)c1csc2ccccc12 | 10.1% |
| CCn1ccc2cc(C(=O)N3C[C@@H](CN4C[C@@H](C)O[C@@H](C)C4)[C@@H](CO)C3)ccc21 | 36.3% |
| CCOc1cc2c(-c3ccccc3)c(C)oc2cc1C(=O)c1ccccc1 | 6.04% |
| CCC(C)NC(=O)Cn1nc(C(=O)N2CCCC2)ccc1=O (centres unmarked) | 57.1% |
| c1ccc2c(-c3ccc4[nH]ncc4c3)csc2c1 | 57% |
| CCn1c2ccccc2n2cc(-c3ccc4c(c3)OCO4)nc12 | 0.865% |
| CCOc1cccc2c1OC1(CCN(CC)CC1)N1N=C(c3ccccc3)CC21 (centres unmarked) | 0.687% |
| COc1ccc(-c2nnc(N(C)C)n2-c2ccc(C)cc2)c(OC)c1 | 5.66% |
| COCCOc1cc(=O)n2c(c1C(=O)N1CCC(Cc3ccccc3)CC1)CCOCC2 | 38.6% |
| Fc1ccc(-n2ccc(CN3CCC(Nc4cccnn4)CC3)n2)c(F)c1 | 74% |
| CCCNS(=O)(=O)c1ccc(CCC(=O)N2CCC(C(=O)OCC)CC2)cc1 | < 1% |
| CCn1nccc1CN(C)S(=O)(=O)c1ccc(Br)s1 | 4.81% |
| O=c1[nH]c(N2CCN(Cc3ccccc3)CC2)nc(O)c1Cc1ccccc1 | 93.6% |
| O=C1CCc2cc(C(=O)N3CCc4sc(Br)cc4C3)c(F)cc2N1 | 25.7% |
| COc1ccc(F)c(-c2nc(COc3ccc(-n4cncn4)cc3)c(C)o2)c1 | 54.1% |
